# Results collected from several papers.
# Each line is one published result; not all experiments were run side by side. ± gives the spread as reported.
# Cell line: MDA-MB-231
SMILES,assay,conditions,how to read,quantity,result
C=C1CN(S(=O)(=O)c2ccc(C)cc2)CCc2cc(-c3ccccc3)cc(n2)CCN(S(=O)(=O)c2ccc(C)cc2)C1.Cl,,"4 µM, 48 h, together with: progranulin 1 µg/mL",,mammosphere formation,decreased
Cc1cc(NS(=O)(=O)c2ccc(NC(=O)/C(C#N)=C/c3ccc(N4CCCC4)cc3)cc2)no1,"cytotoxicity, MTT",,baseline: HSF over MDA-MB-231 IC50,selectivity index,> 1.83
CCCOc1ccc2c(C)c(CC)c(=O)oc2c1C,MTT,,,IC50,211 µg/mL
O=C1C(=O)N(CCn2ncc3c(=O)[nH]cnc32)c2ccc(F)cc21,"cell growth, SRB",72 h,,IC50,15.4 ± 1.81 µg/mL
COc1cnc2cccc(N3CCc4c(cc(Cn5ccnc5C)cc4-c4cn(C)nc4C(F)(F)F)C3=O)c2c1,"cell growth, inhibitor",120 h,,EC50,> 30 µM
O=c1ccn(Cc2cn(-c3cc4ccccc4oc3=O)nn2)c(=O)[nH]1,NCI60 single dose screen,10 µM,,growth percentage,93.1%
CCCN1CCN(c2ccc3[nH]c(-c4ccc5[nH]c(-c6cc(OC)c(OC)c(OC)c6)nc5c4)nc3c2)CC1,SRB,"10 µM, 48 h",,growth percent,98.4%
Nc1ccccc1NC(=O)c1ccc(CNc2ccc(NC3=C(Cl)C(=O)c4cccnc4C3=O)cc2)cc1,"annexin V/PI staining, item: annexin V-/PI-","8 µM, 72 h",,viable cells,52.7%
OCc1ccc(Nc2ccc3c(Nc4cccc(C(F)(F)F)c4)ncnc3c2)cc1,annexin V-PE/DAPI,"concentration not given, 24 h",,live cells,67.7%
CC(C)(C)OC(=O)CC[C@H](NC(=O)c1cc(Cl)ccc1OCCNC(=O)OC(C)(C)C)C(=O)Nc1ccc([N+](=O)[O-])cc1Cl,,"up to 10 µM, 72 h",,antiproliferative activity,inactive
Cc1c(Cc2ccccc2)c(=O)oc2c(C)c(OCC(=O)NN=Cc3ccco3)ccc12,"cell viability, MTT",,,IC50,11.7 µM
Cc1cc(=O)[nH]c(=O)n1Cc1cn(-c2c3ccccc3nc3ccccc23)nn1,NCI60 single dose screen,10 µM,,growth percentage,77.3%
COc1cccc2c1C(=O)c1c(O)c3c(c(O)c1C2=O)C[C@@](O)(C(=O)CO)C[C@@H]3O[C@H]1C[C@H](N)[C@H](O)[C@H](C)O1,H2DCFDA flow cytometry,"concentration not given, 48 h",,ROS level,70.7%
COc1c(C)c(OC(C)=O)c(C)c(O)c1C(=O)/C=C/c1ccccc1,,,baseline: CL over MDA-MB-231,selectivity index,0.77
CC[C@@]1([C@@H]2O[C@@H]([C@H]3O[C@@](O)(CO)[C@H](C)C[C@@H]3C)C[C@@H]2C)CC[C@H]([C@]2(C)CC[C@]3(C[C@H](O)[C@@H](C)[C@@H]([C@@H](C)[C@@H](OC)[C@H](C)C(=O)O)O3)O2)O1,flow cytometry,"half IC50, 72 h",baseline: DMSO,CD44+/CD24− cell reduction,~11%
CO[C@H]1[C@H](O[C@H]([C@H]2O[C@@H](n3ccc(=O)[nH]c3=O)[C@H](O)[C@@H]2O)[C@H](NCCCNC(=O)[C@@H](NC(=O)[C@@H](NC(=O)N[C@H](C(=O)O)C(C)C)[C@@H]2CCN=C(N)N2)[C@@H](OC(=O)CCCCCCCCCCCCN(O)C(=N)N)C(C)C)C(=O)O)O[C@H](CN)[C@H]1O,Boyden chamber,"1.0 µM, 24 h",,migration inhibition,82%
CCCN1CCN(c2ccc3[nH]c(-c4ccc5[nH]c(-c6ccc(OCC)c(OCC)c6)nc5c4)nc3c2)CC1,SRB,"10 µM, 48 h",,growth percent,-80.2%
O=C(NCc1ccc(CNS(=O)(=O)c2ccc3c(c2)CCO3)cc1)c1cccnc1,Matrigel invasion,"0.1 µM, 22 h, together with: CXCL12α 200 ng/mL",,inhibition,> 60%
CCCCCCCC(=O)Oc1c(C)c(O)c(C(=O)/C=C/c2ccccc2)c(OC)c1C,,,baseline: CL over MDA-MB-231,selectivity index,0.97
CN1CCN(c2ccc3[nH]c(-c4ccc5[nH]c(-c6ccc(C(F)(F)F)cc6)nc5c4)nc3c2)CC1,SRB,"10 µM, 48 h",,growth percent,82%
CC(C)(C)OC(=O)N1CCC(Oc2ccc(Cl)cc2C(=O)N[C@@H](Cc2ccccc2)C(=O)Nc2ccc([N+](=O)[O-])cc2Cl)CC1,,"up to 10 µM, 72 h",,antiproliferative activity,inactive
C#C[C@@]1(O)[C@@H](CO)O[C@@H](n2cc(F)c3c(N)ncnc32)[C@@H]1O,"cell growth, SRB",,,TGI,2.98 µM
O=P(O)(O)C(O)(Cn1ccnc1)P(=O)(O)O,AlamarBlue,"3.8 µM, 24 h",baseline: control,viability,97 ± 2%
Cc1ccc(CNC(=O)Cn2cc(CSc3nc4ccccc4[nH]3)nn2)cc1,MTT,31.3 ppm,,viability,12.4%
C#C[C@@]1(O)[C@@H](CO)O[C@@H](n2ccc3c(N)ncnc32)[C@@H]1O,"cell growth, SRB",,,TGI,5.89 µM
O=C1C[C@@H](c2ccc(O)cc2)Oc2cc(O)cc(O)c21,H2DCFDA flow cytometry,"concentration not given, 48 h",,ROS level,57.3%
COc1c(C)c(OC)c(C(=O)/C=C/c2ccccc2)c(OC)c1C,,,baseline: CL over MDA-MB-231,selectivity index,0.63
CCN(CC)c1ccc(C=NNC(=O)CSc2nc3ccccc3c(=O)n2Cc2ccc(S(N)(=O)=O)cc2)c(O)c1,NCI five-dose screen,,,TGI,> 100 µM
O=C1NC(c2ccccc2)(c2ccccc2)C(=O)N1Cc1cn(-c2c3ccccc3nc3ccccc23)nn1,NCI60 single dose screen,10 µM,,growth percentage,73.1%
O=C(Cc1ccccc1)Nc1nnc(CCSCCc2nnc(NC(=O)Cc3ccccc3)s2)s1,"cell proliferation, inhibitor, cell counting",144 h,,EC50,2.1 µM
CCCNC(=O)[C@H]1O[C@@H]1C(=O)N[C@H](C(=O)N1CCC[C@H]1C(=O)OC)[C@@H](C)CC,MTT,"50 µM, 4 h, light and dark",,cytotoxicity,not toxic
CCc1c(C)c2ccc(OCC=Cc3ccccc3)c(C)c2oc1=O,MTT,,,IC50,194 µg/mL
CCCCN1CCN(c2ccc3[nH]c(-c4ccc5[nH]c(-c6ccc(C(F)(F)F)cc6)nc5c4)nc3c2)CC1,SRB,"10 µM, 48 h",,growth percent,-88.9%
CC(C)[C@H](NC(=O)c1cc(Cl)ccc1OCCNC(=O)OC(C)(C)C)C(=O)Nc1ccc([N+](=O)[O-])cc1Cl,Western blot,"up to 10 µM, 24 h",,total STAT3 level,no effect
Cc1[nH]c2ccccc2c1C1=C(Cl)C(=O)C(Cl)=C(N2CCOCC2)C1=O,"apoptosis antibody array, item: HTRA2/Omi, p53, catalase, procaspase-3","100 nM, 48 h",baseline: vehicle,protein level,increased
O=C(Nc1ccc2[nH]c(C(=O)NO)cc2c1)c1ccccn1,Matrigel invasion,"concentration not given, 24 h",baseline: DMSO,cell invasion,no effect
COc1c(C)c(OC(C)=O)c(C)c(OC(C)=O)c1C(=O)/C=C/c1ccccc1,,,baseline: CL over MDA-MB-231,selectivity index,0.92

# Repeated from above:
SMILES,assay,conditions,how to read,quantity,result
COc1c(C)c(OC)c(C(=O)/C=C/c2ccccc2)c(OC)c1C,,,baseline: CL over MDA-MB-231,selectivity index,0.63
CCN(CC)c1ccc(C=NNC(=O)CSc2nc3ccccc3c(=O)n2Cc2ccc(S(N)(=O)=O)cc2)c(O)c1,NCI five-dose screen,,,TGI,> 100 µM
O=C1NC(c2ccccc2)(c2ccccc2)C(=O)N1Cc1cn(-c2c3ccccc3nc3ccccc23)nn1,NCI60 single dose screen,10 µM,,growth percentage,73.1%
O=C(Cc1ccccc1)Nc1nnc(CCSCCc2nnc(NC(=O)Cc3ccccc3)s2)s1,"cell proliferation, inhibitor, cell counting",144 h,,EC50,2.1 µM
CCCNC(=O)[C@H]1O[C@@H]1C(=O)N[C@H](C(=O)N1CCC[C@H]1C(=O)OC)[C@@H](C)CC,MTT,"50 µM, 4 h, light and dark",,cytotoxicity,not toxic
